Measured values of several laboratories.
Each line is one published result; not all experiments were run side by side. Converted amounts (≈) assume the structure as drawn.
Organism: Micrococcus luteus

| SMILES | assay | system | setting | measurement | result |
| --- | --- | --- | --- | --- | --- |
| CC[C@H](C)[C@H](NC(=O)[C@H](CCCCN)NC(=O)[C@H](CCCNC(=N)N)NC(=O)CNC(=O)[C@@H](NC(=O)CN)C(C)C)C(=O)NCC(=O)N[C@@H](Cc1ccccc1)C(=O)N[C@@H](CCCCN)C(=O)N[C@@H](CCCCN)C(=O)N[C@H](C(=O)N[C@@H](CC(C)C)C(=O)N[C@@H](Cc1ccccc1)C(=O)N[C@@H](Cc1ccccc1)C(=O)N[C@@H](Cc1ccccc1)C(=O)N[C@@H](CCCCN)C(=O)N[C@@H](CCCCN)C(=O)NCC(=O)N[C@@H](Cc1ccc(O)cc1)C(=O)N[C@@H](CCC(=O)O)C(=O)N[C@@H](CCCCN)C(=O)N[C@@H](C)C(=O)N[C@@H](CC(N)=O)C(=O)NCC(=O)NCC(=O)N[C@@H](Cc1ccccc1)C(=O)N[C@H](C(=O)N[C@@H](CCCCN)C(=O)N[C@@H](CCCCN)C(=O)N[C@@H](CCCCN)C(=O)NCC(=O)O)C(C)C)C(C)C | broth microdilution | ATCC 8166, CaMHB |  | MBC | 8 µM (≈ 27.7 µg/mL) |
| Cc1ccc2nc(C)c(C(=O)C(=O)NCc3ccccc3)n2c1 | microbial growth | ATCC10240 | 2 mM, 20 h | inhibition zone | 0 mm |
| CC[C@H](C)[C@H](N)C(=O)N1CCC[C@H]1C(=O)N[C@@H](Cc1ccccc1)C(=O)N[C@@H](Cc1c[nH]c2ccccc12)C(=O)N[C@@H](CCCNC(=N)N)C(=O)N[C@@H](Cc1c[nH]c2ccccc12)C(=O)N[C@@H](CC(C)C)C(=O)N[C@@H](CC(C)C)C(=O)N[C@@H](CCC(N)=O)C(=O)N[C@@H](CCCNC(=N)N)C(=O)N[C@@H](CC(C)C)C(=O)N1CCC[C@H]1C(=O)NCC(=O)O | broth microdilution | ATCC 4698 |  | MIC | 4.76 µM |
| CC(C)C[C@H](NC(=O)[C@H](CCCNC(=N)N)NC(=O)[C@H](C)NC(=O)[C@H](CC(C)C)NC(=O)[C@H](CCCNC(=N)N)NC(=O)[C@H](C)NC(=O)[C@H](CCCCN)NC(=O)[C@H](CC(C)C)NC(=O)[C@H](CCCNC(=N)N)NC(=O)[C@H](Cc1ccc(O)cc1)NC(=O)[C@H](CC(C)C)NC(=O)[C@H](CCCNC(=N)N)NC(=O)[C@H](C)NC(=O)[C@H](CCCNC(=N)N)NC(=O)[C@H](CC(C)C)NC(=O)[C@H](CCCCN)NC(=O)[C@H](C)NC(=O)[C@H](CC(C)C)NC(=O)[C@H](CCCNC(=N)N)NC(=O)[C@H](C)NC(=O)[C@@H](N)CCCCN)C(N)=O | broth microdilution | ATCC 7468 | 24 h | MIC | < 1 µM |
| CC(C)C[C@H](NC(=O)[C@H](Cc1ccccc1)NC(=O)[C@H](CCC(N)=O)NC(=O)[C@H](Cc1ccc(O)cc1)NC(=O)[C@H](CCCCN)NC(=O)[C@@H]1CCCN1C(=O)[C@H](CCCNC(=N)N)NC(=O)[C@H](CCC(N)=O)NC(=O)[C@H](Cc1c[nH]c2ccccc12)NC(=O)[C@H](CS)NC(=O)[C@H](Cc1c[nH]c2ccccc12)NC(=O)[C@H](Cc1ccccc1)NC(=O)[C@H](CCCNC(=N)N)NC(=O)[C@H](CCCCN)NC(=O)[C@H](CCCCN)NC(=O)[C@H](CCCCN)NC(=O)[C@@H](NC(=O)[C@@H](NC(=O)[C@H](CC(C)C)NC(=O)[C@@H](N)CO)C(C)C)[C@@H](C)O)C(=O)O |  | NCTC 2665 |  | MBC/MIC ratio | 1.28 |
| CCc1ccn2c(C(=O)NCc3ccccc3)c(C)nc2c1 | microbial growth | ATCC10240 | 2 mM, 20 h | inhibition zone | 0 mm |
| Cc1ccc2[nH]c3c(c2c1)CCCC3NCCc1ccc(Br)cc1 (stereo not drawn) | broth microdilution | DSM 1790 |  | MIC | 2 µg/mL |
| CC[C@H](C)[C@H](NC(=O)[C@H](CC(C)C)NC(=O)[C@H](CO)NC(=O)[C@H](Cc1ccc(O)cc1)NC(=O)CNC(=O)CNC(=O)[C@@H](NC(=O)[C@H](CCCCN)NC(=O)[C@H](Cc1ccc(O)cc1)NC(=O)[C@H](CO)NC(=O)[C@H](CC(N)=O)NC(=O)[C@H](CCCCN)NC(=O)[C@H](CCCCN)NC(=O)[C@H](CO)NC(=O)CNC(=O)[C@H](CCCCN)NC(=O)[C@H](CCCCN)NC(=O)[C@H](CCCNC(=N)N)NC(=O)[C@H](CCCNC(=N)N)NC(=O)[C@@H]1CCCN1)[C@@H](C)O)C(=O)N[C@@H](CO)C(=O)N[C@@H](CC(C)C)C(=O)NCC(=O)N[C@@H](CCCCN)C(=O)N1CCC[C@H]1C(=O)N[C@@H](CC(N)=O)C(=O)N[C@H](C(=O)N[C@@H](Cc1c[nH]cn1)C(=O)N[C@@H](CCCCN)C(=O)N[C@@H](C)C(=O)N1CCC[C@H]1C(=O)N[C@@H](Cc1ccc(O)cc1)C(=O)N[C@@H](CCSC)C(=O)N[C@@H](CCC(=O)O)C(=O)N[C@@H](CO)C(=O)N[C@@H](CC(C)C)C(=O)O)C(C)C | broth microdilution | ATCC 4698 |  | MIC | 15.9 µM |
| CCc1ccn2c(C(=O)N(C)C)c(C)nc2c1 | microbial growth | ATCC10240 | 2 mM, 20 h | inhibition zone | 0 mm |
| c1ccc(CCNC2CCCc3c2[nH]c2ccc(C4CCCCC4)cc32)cc1 (stereo not drawn) | broth microdilution | DSM 1790 |  | MIC | 1 µg/mL |
| Cc1ccc(CNC(=O)C(=O)c2c(C)nc3ccc(C)cn23)cc1 | microbial growth | ATCC10240 | 2 mM, 20 h | inhibition zone | 0 mm |
| CCCCCCCCCCCC(=O)C(C)C(=O)N1CCC[C@H]1C(=O)NC(C)(C)C(=O)NC(C)(C)C(=O)NC(C)(C)C(=O)N[C@](C)(CC)C(=O)NCCC(=O)N[C@@H](C)C(=O)N[C@](C)(CC)C(=O)N[C@@H](C)C(=O)N[C@@H](CC(C)C)C(=O)N[C@](C)(CC)C(=O)NCCC(=O)N[C@@H](C)C(=O)N[C@](C)(CC)C(=O)NCCC(=O)N[C@@H](C)C(=O)NC(C)(C)C(=O)NC(C)(C)C(=O)NC(C)(C)C(=O)N[C@@H](C)C(=O)N[C@@H](CC(=O)O)C(=O)O (stereo partly drawn) |  | ATCC 4698 |  | MIC | > 128 µg/mL |
